# Results pooled from the literature.
# Protocols differ between the studies behind these lines. ± marks the error that the study gave.
SMILES,organism,test,system,conditions,EC50
COc1c(CNC(=O)c2cc(C3CC3)nn2C)cccc1OC(F)(F)F,swine influenza virus,viral replication,"MDCK, SIV/SK wild type",,25 nM
C#CCN1C(=O)C(CC#C)(C(=O)OCC)Oc2ccccc21 (stereo not shown),Xanthomonas oryzae,microbial growth,,,> 128 µg/mL
Cc1cc(-c2cnc3c(c2)c(O)c(-c2ccccc2)c(=O)n3O)ccc1F,Vaccinia virus,viral replication,HFF,24 h,1600 ± 100 nM
CC(NC(=O)NNS(=O)(=O)c1ccc(OC(F)F)cc1)(C(F)(F)F)C(F)(F)F,Mammarenavirus machupoense,viral replication,Vero,,300 nM
CO/C1=C\C(C)=C\[C@@H](C)[C@@H](O)[C@@H](C)C/C(C)=C/C=C/[C@H](OC)[C@@H]([C@@H](C)[C@@H](O)[C@H](C)C(=O)/C=C/[C@H](C)[C@H](O)C(C)C)OC1=O,SARS-CoV-2 Omicron BA.1,"viral replication, dsRNA staining",Calu-3,,67.3 nM
COc1ccc(-c2c3nc(c(-c4ccc(OC)c(S(=O)(=O)O)c4)c4ccc([nH]4)c(-c4ccc(OC)c(S(=O)(=O)O)c4)c4nc(c(-c5ccc(OC)c(S(=O)(=O)O)c5)c5ccc2[nH]5)C=C4)C=C3)cc1S(=O)(=O)O,vaccinia virus,extracellular enveloped virus,"CV-1, IHD-J",,0.5 ± 0.1 µg/mL
O=c1cc(-c2ccccc2)oc2c(Br)c(O)c(O)c(O)c12,Chikungunya virus,"viral replication, plaque",Vero,72 h,490 ± 110 nM
[N-]=[N+]=N[C@]1(CO)O[C@@H](n2ccc(N)nc2=O)C(F)(F)[C@@H]1O,Nipah virus,viral replication,NCI-H358,,370 ± 110 nM
COc1cc(-c2oc3cc(O)cc(O)c3c(=O)c2O[C@@H]2O[C@H](CO)[C@@H](O)[C@H](OC(C)=O)[C@H]2O)ccc1O,Influenza A virus,viral replication,"MDCK, A/Tern/South Africa/1/61(H5N3)",,24000 ± 350 nM
O=S(=O)(O)c1cccc(-c2c3nc(c(-c4cccc(S(=O)(=O)O)c4F)c4ccc([nH]4)c(-c4cccc(S(=O)(=O)O)c4F)c4nc(c(-c5cccc(S(=O)(=O)O)c5F)c5ccc2[nH]5)C=C4)C=C3)c1F,vaccinia virus,extracellular enveloped virus,"CV-1, IHD-J",,1.1 ± 0.5 µg/mL
COc1cc(-c2oc3cc(O)cc(O)c3c(=O)c2O[C@@H]2O[C@H](CO[C@@H]3O[C@@H](C)[C@H](O)[C@@H](O)[C@H]3O)[C@@H](O)[C@H](OC(C)=O)[C@H]2O)ccc1O,Influenza A virus,viral replication,"MDCK, A/Tern/South Africa/1/61(H5N3)",,135100 ± 670 nM
CCOC(=O)[C@@H](C)NP(=O)(CO[C@H](CF)CN1CNC(N)=NC1=O)N[C@H](C)C(=O)OCC,Vaccinia virus,viral replication,HEL,,> 100000 nM
Nc1ccn(C[C@@H](CO)OCP(=O)(O)OCCCS(=O)(=O)CCCCCCCCCCCCC2CCC2)c(=O)n1,vaccinia virus,viral replication,"HFF, Copenhagen",,25800 nM
CCCCCCCCCC(=O)OCC1OC(n2cc(C)c(=O)[nH]c2=O)CC1N(C)C (stereo not shown),vaccinia virus,viral replication,HEL,,> 230 nM
O=S(=O)(O)c1cccc(-c2c3nc(c(-c4cccc(S(=O)(=O)O)c4Cl)c4ccc([nH]4)c(-c4cccc(S(=O)(=O)O)c4Cl)c4nc(c(-c5cccc(S(=O)(=O)O)c5Cl)c5ccc2[nH]5)C=C4)C=C3)c1Cl,vaccinia virus,extracellular enveloped virus,"CV-1, IHD-J",,0.7 ± 0.1 µg/mL
O=c1ccn(C2OC(F)(CO)C(O)C2O)c(=O)[nH]1 (stereo not shown),Lassa virus,,Huh-7,,1470 ± 1030 nM
CCCC1(CN2c3ccccc3Sc3ccccc32)CCN(CC)C1 (stereo not shown),SARS coronavirus,,"Vero 76, Urbani",,10800 ± 6700 nM
COc1cc(-c2oc3cc(O[C@@H]4O[C@@H](C)[C@H](O)[C@@H](O)[C@H]4O)cc(O)c3c(=O)c2O[C@@H]2O[C@H](CO[C@@H]3O[C@@H](C)[C@H](O)[C@@H](O)[C@H]3O)[C@@H](O)[C@H](OC(C)=O)[C@H]2O)ccc1O,Influenza A virus,viral replication,"MDCK, A/Tern/South Africa/1/61(H5N3)",,1300 ± 25 nM
CC[C@H](C)[C@H](NC(C)=O)C(=O)N[C@@H](CCC(=O)O)C(=O)N[C@@H](CCC(=O)O)C(=O)N[C@H](C(=O)N[C@@H](CCC(N)=O)C(=O)N[C@@H](CCCCN)C(=O)N[C@@H](CCCCN)C(=O)N[C@H](C(=O)N[C@@H](CCC(=O)O)C(=O)N[C@@H](CCC(=O)O)C(=O)N[C@H](C(=O)N[C@@H](CCC(N)=O)C(=O)N[C@@H](CCCCN)C(=O)N[C@@H](CCCCN)C(=O)N[C@H](C(=O)N[C@@H](CCC(=O)O)C(=O)N[C@@H](CCC(=O)O)C(=O)N[C@H](C(=O)N[C@@H](CCC(N)=O)C(=O)N[C@@H](CCCCN)C(=O)N[C@@H](CCCCN)C(=O)N[C@H](C(=O)N[C@@H](CCC(=O)O)C(=O)N[C@@H](CCC(=O)O)C(=O)N[C@H](C(=O)N[C@@H](CCC(N)=O)C(=O)N[C@@H](CCCCN)C(=O)N[C@@H](CCCCN)C(=O)N[C@H](C(=O)N[C@@H](CCC(=O)O)C(=O)N[C@@H](CCC(=O)O)C(=O)N[C@H](C(=O)N[C@@H](CCC(N)=O)C(=O)N[C@@H](CCCCN)C(=O)N[C@@H](CCCCN)C(=O)NCCC(=O)N[C@@H](CCCCNC(C)=O)C(N)=O)[C@@H](C)CC)[C@@H](C)CC)[C@@H](C)CC)[C@@H](C)CC)[C@@H](C)CC)[C@@H](C)CC)[C@@H](C)CC)[C@@H](C)CC)[C@@H](C)CC,MERS-CoV pseudovirus,viral entry,,,> 40000 nM
CCC(NC(=O)NNS(=O)(=O)c1ccc(C)cc1)(C(F)(F)F)C(F)(F)F,Mammarenavirus machupoense,viral replication,Vero,,150 nM
O=S(=O)(O)c1c2ccccc2c(-c2c3nc(c(-c4c5ccccc5c(S(=O)(=O)O)c5ccccc45)c4ccc([nH]4)c(-c4c5ccccc5c(S(=O)(=O)O)c5ccccc45)c4nc(c(-c5c6ccccc6c(S(=O)(=O)O)c6ccccc56)c5ccc2[nH]5)C=C4)C=C3)c2ccccc12,vaccinia virus,extracellular enveloped virus,"BSC-40, IHD-J",,0.55 ± 0.14 µg/mL
CONC(=O)[C@H]1[C@@H](O)[C@@]2(O)c3c(OC)cc(OC)cc3O[C@@]2(c2ccc(OC)cc2)[C@@H]1c1ccccc1,Lassa virus,viral replication,mouse hepatocytes,,36.1 nM
CSCC[C@@H](C=O)NC(=O)[C@H](CC(C)C)NC(=O)[C@H](CC(C)C)NC(C)=O,SARS coronavirus,viral replication,Vero 76,96 h,5580 ± 740 nM
COc1cc(-c2oc3cc(O)cc(O)c3c(=O)c2O[C@@H]2O[C@H](CO[C@@H]3O[C@@H](C)[C@H](OC(C)=O)[C@@H](O)[C@H]3OC(C)=O)[C@@H](O)[C@H](O)[C@H]2O)ccc1O,Influenza A virus,viral replication,"MDCK, A/Tern/South Africa/1/61(H5N3)",,70600 ± 760 nM
C=CCN1C(=O)C(CC=C)(C(=O)OCC)Oc2cc(F)ccc21 (stereo not shown),Xanthomonas oryzae pv. oryzicola,bacterial growth,,,> 128 µg/mL
CC(C)C1=CC2=CC[C@@H]3[C@](C)(CCC[C@@]3(C)C(=O)OCC#CCN3CCCC3)[C@H]2CC1,SARS-CoV-2 pseudovirus,viral replication,,,11000 nM
O=C(O)c1cn2c(c(O)c1=O)C(=O)N(Cc1ccc(F)cc1F)C[C@@H]2C(c1ccccc1)c1ccccc1,Mammarenavirus choriomeningitidis,viral replication,KB,,6.2 nM
Oc1cccc(O)c1-c1c2nc(c(-c3c(O)cccc3O)c3ccc([nH]3)c(-c3c(O)cccc3O)c3nc(c(-c4c(O)cccc4O)c4ccc1[nH]4)C=C3)C=C2,vaccinia virus,extracellular enveloped virus,"CV-1, IHD-J",,0.7 ± 0.2 µg/mL
CC(NC(=O)Nc1ccc(Br)cc1)c1c(-n2cccc2)sc2c1CCCC2 (stereo not shown),MERS-CoV,viral replication,Vero,24 h,950 nM
CC(C)Oc1ccc(-n2cnc3cc(/C=C\c4ccc(C(C)(C)O)cc4)ccc32)cc1,Lassa virus,,Huh-7,,6620 ± 2300 nM
Nc1nc(Nc2ccc(Cl)cc2)nn1S(=O)(=O)c1ccc2ccccc2c1,Powassan virus,viral replication,"BHK-21, LB",,> 7000 nM
CCOC(=O)C1(Cc2ccccc2)Oc2cc(F)ccc2N(Cc2ccccc2)C1=O (stereo not shown),Xanthomonas oryzae,microbial growth,,,> 128 µg/mL
CC(=O)OC1(C)CC(C=C(C)CCC=C(C)C)OC2(C=C(CO)C3CC(=O)C(C)=CC3O2)C1 (stereo not shown),SARS-CoV-2 Omicron BA.5,"viral replication, dsRNA staining",Calu-3,,700 nM
Nc1nc(Nc2ccc(Cl)c(Cl)c2)nn1S(=O)(=O)c1ccc2ccccc2c1,Japanese encephalitis virus,viral replication,"Vero 76, SA-14",,3100 nM

# For quick reference, copied from above:
SMILES,organism,test,system,conditions,EC50
CCOC(=O)[C@@H](C)NP(=O)(CO[C@H](CF)CN1CNC(N)=NC1=O)N[C@H](C)C(=O)OCC,Vaccinia virus,viral replication,HEL,,> 100000 nM
COc1ccc(-c2c3nc(c(-c4ccc(OC)c(S(=O)(=O)O)c4)c4ccc([nH]4)c(-c4ccc(OC)c(S(=O)(=O)O)c4)c4nc(c(-c5ccc(OC)c(S(=O)(=O)O)c5)c5ccc2[nH]5)C=C4)C=C3)cc1S(=O)(=O)O,vaccinia virus,extracellular enveloped virus,"CV-1, IHD-J",,0.5 ± 0.1 µg/mL
C=CCN1C(=O)C(CC=C)(C(=O)OCC)Oc2cc(F)ccc21 (stereo not shown),Xanthomonas oryzae pv. oryzicola,bacterial growth,,,> 128 µg/mL
